Experimental data of several laboratories.
Compare with care: the assays were run in different laboratories. Several values in a cell are separate wells, animals, samples, runs or records. ± gives the spread as reported.

With `Cc1cc2cc(C(=O)N(Cc3ccc(C(F)(F)F)cn3)[C@H](C)c3ncccn3)ccc2nc1N` the inhibition was 86% (ELISA, measured: SDMA; mouse, HCT-116 MTAP-deleted xenograft, tumour; oral, 100 mg/kg once daily, 7 doses, 4 h after last dose; reference: vehicle).
For `CN1CCC(N[C@@H]2CCc3[nH]c4c(C(N)=O)ccc(-c5ccccc5Cl)c4c3C2)CC1`, the IC50 was 20 nM (organoid viability, CellTiter-Glo 3D; sample C colorectal cancer organoid, human; 6 days).
With `COC1OC(C)C(O)C(OC2OC(C)C(O)C(OC3OC(C)C(O)C(OC4OC(C)C(O)C(OC5OC(C)C(O)C(OC6OC(C)C(O)C(OC7OC(C)C(O)C(OC8OC(C)C(O)C(OC9OC(C)C(O)C(OS(=O)(=O)O)C9OS(=O)(=O)O)C8OS(=O)(=O)O)C7OS(=O)(=O)O)C6OS(=O)(=O)O)C5OS(=O)(=O)O)C4OS(=O)(=O)O)C3OS(=O)(=O)O)C2OS(=O)(=O)O)C1OS(=O)(=O)O` (centres unmarked) the APTT prolongation was 1.3 fold (human plasma; 128 µg/mL; reference: control).
With `Oc1cc2c(cc1O)C(c1cccc3[nH]ccc13)NCC2` (centres unmarked) the Fe2+ chelation was 96.24 ± 0.32% (ferrozine; cell-free; 100 µM, DMSO solvent).
For `CN1CCCNC(=O)c2cccc(c2)C(=O)NCCCN(C)CCCNc2cccc3c2C(=O)c2cccc(c2C3=O)NCCC1`, “log2 fold change” read 1.35 (SAS; RNA-Seq, measured: CSKMT mRNA; 1 µM, 6 h; reference: untreated cells).
For `Nc1ncc(-c2cc(-c3cnn(CC(F)(F)F)c3)ncc2F)nc1C(=O)NC1CNCC(F)C1` (centres unmarked), the remaining binding was 50% (CHEK1; KINOMEscan; 1 µM; reference: control).
For `COC1CN([C@H]2CC[C@H]([C@@]3(C)Oc4c(Cl)cc(C(=O)NCc5c(SC)cc(C)[nH]c5=O)c(C)c4O3)CC2)C1`, “log2 fold change” read 0.909 (RNA-seq, measured: MYO1D mouse homolog; mouse, HT-1376 xenograft, whole blood; dose not given; reference: vehicle).
`COCCOCCOCCNC(=O)Cc1cc(CC(=O)N[C@H]2C[C@H]3C(=O)Nc4cc(OCCOCCOCCOC)cc(n4)C(=O)N4CCC[C@H]4C(=O)Nc4cc(OCCOCCOCCOC)cc(n4)C(=O)N4CCC[C@H]4C(=O)Nc4cc(OCCOCCOCCOC)cc(n4)C(=O)N3C2)cc(CC(=O)N[C@H]2C[C@H]3C(=O)Nc4cc(OCCOCCOCCOC)cc(n4)C(=O)N4CCC[C@H]4C(=O)Nc4cc(OCCOCCOCCOC)cc(n4)C(=O)N4CCC[C@H]4C(=O)Nc4cc(OCCOCCOCCOC)cc(n4)C(=O)N3C2)c1` gave a ΔG of -18.4 ± 0.1 kJ mol^–1 (anion binding, ITC; water; 298 K, with: sodium bromide).
For `CNS(=O)(=O)Nc1nccc(Cc2c(C)c3ccc(Oc4ncccc4F)cc3oc2=O)c1F`, the IC50 was > 1000 nM (DB; cell viability, CellTiter-Glo; 7 days).
The spleen weight of `CCCCCCC(CSS(=O)(=O)O)NCC(C)C` (centres unmarked) is reported as 0.7 g (Swiss Webster mice, Schistosoma mansoni-infected; 100 mg/kg, perfusion day 62 post-infection).
The translation activity of `C[C@]12CCC(O)CC1=CCC1C2CC[C@]2(C)/C(=N\NC(N)=S)CCC12` (some centres unmarked) is reported as 85.6% and 108% (Trypanosoma cruzi; reporter mRNA translation, inhibitor, measured: Renilla luciferase mRNA; cell-free extract; concentration not given, test 1; reference: positive over negative control).
With `CN1CCC[C@]1(C)/C=C/S(=O)(=O)NC(=O)Nc1c2c(cc3c1CCC3)CCC2` the IL-18 inhibition was 99.8% (human, whole blood ex vivo; 50 mg twice daily, day 14, 6 h, multiple ascending dose, with: LPS and ATP).
For `O=Cc1cc(C(F)(F)F)ccc1B(O)O`, “pseudo-first-order rate constant” read 0 h⁻¹ (HPLC-MS; pH 10.2, with: 50 mM N-α-acetyl-lysine).
With `COC1OC(C)C(OC2OC(C)C(OS(=O)(=O)O)C(OC3OC(C)C(OC4OC(C)C(OS(=O)(=O)O)C(OC5OC(C)C(OC6OC(C)C(OS(=O)(=O)O)C(OC7OC(C)C(OC8OC(C)C(OS(=O)(=O)O)C(OC9OC(C)C(OC%10OC(C)C(OS(=O)(=O)O)C(OC%11OC(C)C(OC%12OC(C)C(OS(=O)(=O)O)C(OS(=O)(=O)O)C%12O)C(OS(=O)(=O)O)C%11O)C%10O)C(OS(=O)(=O)O)C9O)C8O)C(OS(=O)(=O)O)C7O)C6O)C(OS(=O)(=O)O)C5O)C4O)C(OS(=O)(=O)O)C3O)C2O)C(OS(=O)(=O)O)C1O` (centres unmarked) the APTT prolongation was 1.5 fold (human plasma; 128 µg/mL; reference: control).
The amount of `COc1cc(O)ccc1CCC(c1ccc(O)cc1)c1cc2c(c(C)c1O)OC(c1ccc(O)cc1)CC2` (mixture of isomers) is reported as 110 ± 11 pg/mL blood (measured: 12-HEPE; human whole blood; 3 µM, with: A23187).
`CCCCCCCCN(CCC(=O)Nc1ccccc1)C(=O)c1ccccn1` — result for “perivascular WGA deposition”: 25% (immunofluorescence; Lmna G609G/G609G progeroid mice, aortic arch; dose not given; reference: vehicle).
`CC(C)=CCCC(C)CN(C)CCc1ccccn1` (centres unmarked) has a translation activity of 112% (Trypanosoma cruzi; reporter mRNA translation, inhibitor, measured: Renilla luciferase mRNA; cell-free extract; concentration not given, test 3; reference: positive over negative control).
